Results collected from several papers.
Compare with care: the assays were run in different laboratories. “And” joins repeats or separate records; there may be more than shown. ± marks the error that the study gave.

| Compound | test | system | setting | how to read | endpoint | value |
| --- | --- | --- | --- | --- | --- | --- |
| N#Cc1ccc2c(c1)[C@H]1CCCN(C(=O)c3ccc4[nH]cnc4c3)[C@H]1C2 | meal tolerance test | human, Phase II trial | 20 mg once daily, day 28, AUC0-2 h, adjusted mean | reference: baseline | C-peptide AUC change | 0.2 pmol/h/L |
| COC[C@@H](c1ccc(C(F)(F)F)cc1)N1CCN(C2(C)CCN(C(=O)c3c(C)ncnc3C)CC2)C[C@@H]1C | – | HIV-1 infected patients, plasma | 5 mg, week 16, with optimized background regimen | reference: baseline | change in HIV-1 RNA | -1.95 log10 copies/mL |
| CN(C)C(=O)Oc1cccc([N+](C)(C)C)c1 | neuromuscular block reversal | rat | dose not given, 6.5 (unit not given), added: cisatracurium | reference: T1 twitch | train-of-four ratio | 48.1 |
| Cc1nn(-c2nc3c(F)cc(F)cc3s2)c(O)c1C(c1ccc(C(F)(F)F)cc1)c1c(C)nn(-c2nc3c(F)cc(F)cc3s2)c1O | refers to: parenchymal necrosis | mouse, cerulein-induced acute pancreatitis | 25 mg/kg | direction not given | histology score | 0 and 3 |
| N=C(N)NCCC[C@H](NC(=O)[C@H](CCCNC(=N)N)NC(=O)[C@H](CCCCN)NC(=O)[C@H](CCC(N)=O)NC(=O)[C@H](CCCCN)NC(=O)[C@H](Cc1ccc(O)cc1)NC(=O)[C@@H](N)CCCCN)C(=O)N[C@@H](CO)C(=O)N[C@@H](Cc1ccc(O)cc1)C(=O)N[C@@H](CCCCN)C(=O)O | – | dentin hypersensitivity patients aged 30-40 years | 10 µg/tooth, day 36, unit not given | reference: baseline | median VAS change | -17 |
| CSCCNc1nc(SCCC(F)(F)F)nc2c1ncn2[C@@H]1O[C@H](COP(=O)(O)OP(=O)(O)C(Cl)(Cl)P(=O)(O)O)[C@@H](O)[C@H]1O | light transmittance aggregometry | human patients, platelet-rich plasma | dose not given, 2 h, added: ADP 5 µM | – | inhibition of platelet aggregation | 43.5 ± 22.9% |
| O=C(O)/C=C/c1ccc(Cn2ccnc2)cc1 | – | rat, MCAO/R model, platelet-rich plasma | intravenous, dose not given, 4 h, added: ADP 10 µM | – | platelet aggregation | 29.6% |
| C[C@H](NC(=O)c1c(C(F)F)nn(C)c1Oc1cccc(C(F)(F)F)c1)c1ccc(C(=O)O)cc1 | irRECIST | human, advanced tumours | 125 mg | best overall response | stable disease | 25% |
| Cc1ccc(C(=O)Nc2ccnc(S(N)(=O)=O)c2)c(N2CCCC(F)(F)CC2)n1 | – | rhesus macaque, plasma | concentration not given, minimum for significant effect | – | total plasma concentration | ~3 µM |
| OC(CCN1CCCCC1)(c1ccccc1)C1CC2C=CC1C2 (stereo not shown) | resting-state EEG | healthy elderly humans | oral, 4 mg, eyes closed, LS mean | – | EEG Beta1-power Pz-O2 | 4.3 µV² |
| C=CC[C@@H]1/C=C(\C)C[C@H](C)C[C@H](OC)[C@H]2O[C@@](O)(C(=O)C(=O)N3CCCC[C@H]3C(=O)O[C@H](/C(C)=C/[C@@H]3CC[C@@H](O)[C@H](OC)C3)[C@H](C)[C@@H](O)CC1=O)[C@H](C)C[C@@H]2OC | qPCR, refers to: Egfr, Fxyd2, Nedd4l | Wistar Kyoto rats, male, kidney cortex | ip, 0.5 mg/kg/day, day 28 | reference: vehicle | mRNA level | no effect |
| CN[C@@H]1COc2c(S(=O)(=O)NC(=O)Nc3c4c(cc5c3CCC5)CCC4)cnn2C1 | refers to: IL-18 | human participants, whole blood ex vivo | 300 mg twice daily, multiple doses, 1 h, IL-18, circulating, adjusted for, added: LPS/ATP | reference: baseline | inhibition | 94.2% |
| C[C@H](Oc1ccc(Br)cc1-c1ccon1)C(=O)O | first response peak | human, tibialis anterior muscle | 1200 mg, 30 Hz, single ascending dose | – | difference from placebo | 11.6% |
| CO[C@H]1CC[C@H](N2C(=O)CNc3ncc(-c4ccc(C(C)(C)O)nc4)nc32)CC1 | flow cytometry | stimulated monocytes, human, blood | 60 mg single dose, 3 h, mean | reference: baseline | pAKT change from baseline | -44.8% |
| Oc1ccc(Br)cc1C=NCCN1CCOCC1 | hydroxyl radical scavenging | – | 40 µM | – | inhibition | 7.95% |
| Cn1cc(Nc2nccc(-c3ccc4c(c3)CN(C3COC3)CC[C@H]4NC(=O)c3cn(C(C)(C)C)nn3)n2)cn1 | refers to: Apelin pancreas signaling | splenic B cells, mice | 30 mg/kg, added: in vivo IgD activation | reference: vehicle, direction not given | pathway activation z-score | 1.13 |
| CC1(C)CCC(c2ccc(Cl)cc2)=C(CN2CCN(c3ccc(C(=O)NS(=O)(=O)c4ccc(N[C@H](CCN5CCOCC5)CSc5ccccc5)c(S(=O)(=O)C(F)(F)F)c4)cc3)CC2)C1 | cell killing | canine blood CD3+ T cells, dog 31 | 24 h | – | EC50 | 63 nM |
| C[C@H]1C[C@H]2CSC(N)=N[C@@]2(c2nc(NC(=O)c3ccc(OC(F)F)cn3)cs2)CO1 | refers to: Aβx-40 | healthy adults, plasma | 12 mg single dose, 24 h post-dose | reference: placebo | percent change from baseline | -49.2% |
| COc1cc(C2NCCc3cc(O)c(O)cc32)ccc1O (stereo not shown) | ferrozine | cell-free | 100 µM, DMSO solvent | – | Fe2+ chelation | 94.2 ± 2.32% |
| c1ccc(-c2n[nH]cc2-c2ccnc3ccccc23)nc1 | kinase binding, competitor, MIB/MS competition, refers to: KSP1 | Candida albicans cell lysate | 1 µM | reference: DMSO | log2 fold change | 0.985 |
| CN(C(=O)n1cnc(-c2ccc[n+]([O-])c2)c1)C1CCCCC1 | – | mice, formalin paw test | oral, 1 mg/kg, late phase | reference: vehicle, direction not given | change in licking score | -28% |
| CC(C)NCC(O)c1ccc(O)c(O)c1 (stereo not shown) | – | ventricular cardiomyocytes, C57BL/6 mouse | dose not given, 0.796 s | – | sarcomere length | 1.65 µm |

| Compound | test | system | setting | how to read | endpoint | value |
| --- | --- | --- | --- | --- | --- | --- |
| COc1cc(O)c(CC=C(C)C)c(O)c1C(=O)/C=C/c1ccc(O)cc1 | – | male Tac:SW mice, conventional and germ-free | in high-fat diet, dose not given, 10 weeks | reference: high-fat diet alone | final body weight | no effect |
| COc1cc2cc(-c3ccc(CC(=O)Nc4cc(C(C)(C)C(F)(F)F)no4)cn3)cnc2cc1OC | – | human RET-mutant medullary thyroid cancer | 75 mg, phase I, RECIST 1.1 | – | stable disease as best response | 71% |
| CC1(C)CCC2(CC1)N[C@@H](C(=O)N[C@@H]1CC[C@@H](C(N)=O)OC1)[C@H](c1ccnc(Cl)c1F)[C@]21C(=O)Nc2cc(Cl)ccc21 | – | human, solid tumours | 120 mg/day, RECIST | reference: patients | stable disease | 33.3% |
| O=C(OC(C(F)(F)F)C(F)(F)F)N1CCN(Cc2cccc(Oc3ccccc3)c2)CC1 | PET | rhesus monkey, pons | intravenous, 0.03 mg/kg, pretreatment blocking, added: [18F]T-401 | – | tracer distribution volume | 1.89 mL/cm3 |
| N#Cc1ccc2c(-c3ccncc3)c(-c3ccc(F)cc3)nn2c1 | kinase binding, competitor, MIB/MS competition, refers to: IRE1 | Candida albicans cell lysate | 1 µM | reference: DMSO | log2 fold change | 0.0765 |
| O=C(O)CNC(=O)Cc1ccccc1 | – | ventricular cardiomyocytes, C57BL/6 mouse | dose not given, 0.188 s | – | sarcomere length | 1.62 µm |
| CCOC(=O)c1c(NC(=O)CNC(C)C)sc2c1CCCCC2 | – | APP J20 mice | intraperitoneal, 75 mg/kg, first 2 h, NREM sleep | – | epileptiform spike rate | 58.2 ± 11.2 spikes/h |
| CC(C)[C@H](NC(=O)[C@H](Cc1ccc(O)cc1)NC(=O)[C@H](Cc1ccc(O)cc1)NC(=O)[C@@H]1CCCN1C(=O)[C@H](CCC(=O)O)NC(=O)[C@H](CCC(=O)O)NC(=O)[C@H](Cc1c[nH]c2ccccc12)NC(=O)[C@@H]1CCCN1C(=O)[C@@H](NC(=O)[C@H](CCC(N)=O)NC(=O)c1ccc2c(c1)C(=O)OC21c2ccc(O)cc2Oc2cc(O)ccc21)C(C)C)C(=O)N[C@H](C(=O)N[C@@H](CCCCN)C(=O)N[C@@H](CCCCN)C(=O)N[C@@H](CO)C(=O)N[C@@H](CO)C(=O)NCC(=O)NCC(N)=O)C(C)C | nerve penetration depth | human head and neck surgery, nerves | 500 mg, slightly improved | reference: white light | share of responses | 15.4% |
| COc1cc(Nc2ncc3c(n2)-c2ccc(Cl)cc2C(c2c(F)cccc2OC)=NC3)ccc1C(=O)O | – | mouse, NB-SD neuroblastoma xenograft | oral, 10.4 mg/kg, day 7 | reference: vehicle | relative tumour volume T/C | 1.58 |
| Cc1n[nH]c2ccc(-c3cc(OC[C@@H](N)Cc4ccccc4)cnc3-c3ccoc3)cc12 | kinase binding, competitor, MIB/MS competition, refers to: TOR1 | Candida albicans cell lysate | 1 µM | reference: DMSO | log2 fold change | 0.207 |
| NCC(=O)Nc1cncc(-c2nn3c(=O)cc(N4CCNCC4)nc3s2)c1 | ADP-induced platelet aggregation, light transmission aggregometry | human stable CAD patients on aspirin, platelets ex vivo | 0.04 mg/kg, 180 min post dose, added: 20 µM ADP | reference: placebo difference | inhibition of platelet aggregation | -9.05% |
| CC[C@H](C)[C@H](NC(=O)[C@H](C)NC(=O)CNC(=O)[C@H](Cc1ccccc1)NC(=O)[C@H](CC(N)=O)NC(=O)[C@H](CC(N)=O)NC(=O)[C@H](CO)NC(=O)[C@H](CO)NC(=O)[C@H](Cc1c[nH]cn1)NC(=O)[C@@H](NC(=O)[C@H](CC(C)C)NC(=O)[C@H](Cc1ccccc1)NC(=O)[C@H](CC(N)=O)NC(=O)[C@H](C)NC(=O)[C@H](CC(C)C)NC(=O)[C@H](CCCNC(=N)N)NC(=O)[C@H](CCC(N)=O)NC(=O)[C@@H](NC(=O)[C@H](C)NC(=O)[C@@H]1CSSC[C@H](NC(=O)[C@@H](N)CCCCN)C(=O)N[C@@H](CC(N)=O)C(=O)N[C@@H]([C@@H](C)O)C(=O)N[C@@H](C)C(=O)N[C@@H]([C@@H](C)O)C(=O)N1)[C@@H](C)O)C(C)C)C(=O)N[C@@H](CC(C)C)C(=O)N[C@@H](CO)C(=O)N[C@@H](CO)C(=O)N[C@H](C(=O)N[C@@H](CC(N)=O)C(=O)N[C@H](C(=O)NCC(=O)N[C@@H](CO)C(=O)N[C@@H](CC(N)=O)C(=O)N[C@H](C(=O)N[C@@H](Cc1ccc(O)cc1)C(N)=O)[C@@H](C)O)C(C)C)[C@@H](C)O | ELISA | isolated mouse islets | 10 µM, 24 h, unit not given | reference: control | total insulin content | 0.542 |
| NC(=O)c1cnc2[nH]ccc2c1N[C@@H]1[C@@H]2CC3C[C@H]1C[C@@](O)(C3)C2 | flow cytometry, refers to: memory T cells (CD3+ CD45RA-) | Japanese healthy subjects, peripheral blood | oral, 10 mg twice daily, day 4 | – | change from baseline | 1.02% |
| COc1nc(-c2cc(C)c(N[C@@H](C)c3cc(F)cc(F)c3)nn2)ccc1-n1cnc(C)c1 | refers to: Aβ42 | rat Sprague-Dawley male, CSF | oral, 50 mg/kg daily for 9 days, 4 h after dose | reference: vehicle | change in level | 88% |
| CC(C)[C@H](C(=O)Nc1ccc(C(=O)NO)cc1)c1ccccc1 | – | human | 1.7 4 weeks after dosing | higher = worse hearing | pure-tone average, left ear | 77 dB |
| CC(C)=CC1NCCc2cc(O)c(O)cc21 (stereo not shown) | ferrozine | cell-free | 100 µM, DMSO solvent | – | Fe2+ chelation | 94.97 ± 0.36% |
| COc1ccccc1[C@H](Cn1c(=O)n(C(C)(C)C(=O)O)c(=O)c2c(C)c(-c3ncco3)sc21)OC1CCOCC1 | [1-13C]acetate infusion, isotopomer analysis | overweight or obese healthy men, plasma VLDL-TG palmitate | oral, 20 mg single dose, 10 h post-dose, added: oral fructose | – | fractional hepatic DNL | 23 % new palmitate |
| CCN1[C@@H](C(=O)NC23CCC(C(=O)O)(CC2)CC3)[C@H](c2cccc(Cl)c2F)[C@]2(C(=O)Nc3cc(Cl)ccc32)C12CCCCC2 | – | human, peripheral blood | dose not given | – | CD19+ cells in blood | increased |
| C=CCn1c(=O)c2cnc(Nc3ccc(N4CCN(C)CC4)cc3)nc2n1-c1ccc2c(n1)[C@@](O)(CC)CC2 | – | LNCaP xenograft, BALB/c nude mice | oral, 80 mg/kg once daily x 21, day 22 | reference: vehicle | tumour growth inhibition | 56.1% |
| Fc1ccc2c(c1)C#Cc1ccc(F)cc1C#C2 | UV spectroscopy | methanol | room temperature, added: benzyl azide | – | second-order rate constant | 0.0457 M⁻¹ s⁻¹ and 0.0487 M⁻¹ s⁻¹ |
| Cn1cc([C@H]2C[C@H]3CSC(N)=N[C@@]3(c3ccc(F)cc3F)CO2)cn1 | refers to: Aβx-40 | wild-type mouse, brain | subcutaneous, 3 mg/kg, 3 h | – | Aβ40 level | 2.87 ng/g |

A few entries again:
| Compound | test | system | setting | how to read | endpoint | value |
| --- | --- | --- | --- | --- | --- | --- |
| N#Cc1ccc2c(-c3ccncc3)c(-c3ccc(F)cc3)nn2c1 | kinase binding, competitor, MIB/MS competition, refers to: IRE1 | Candida albicans cell lysate | 1 µM | reference: DMSO | log2 fold change | 0.0765 |
| O=C(O)CNC(=O)Cc1ccccc1 | – | ventricular cardiomyocytes, C57BL/6 mouse | dose not given, 0.188 s | – | sarcomere length | 1.62 µm |
| CCOC(=O)c1c(NC(=O)CNC(C)C)sc2c1CCCCC2 | – | APP J20 mice | intraperitoneal, 75 mg/kg, first 2 h, NREM sleep | – | epileptiform spike rate | 58.2 ± 11.2 spikes/h |
